Experimental data collected from several papers.
Each line is one published result; not all experiments were run side by side. ± gives the spread as reported.
B1: enzyme Y161A (Streptomyces parvus, UniProt A0A7K3RVR3); chain MYVPEQYRPRDASWTLELIRSNPLALLVTNGPQHPWATHVPVLFAEEPDGPEGPDGLDATGDDLVGRRLLGHLNLMNPHWEALAGAGHALLVFQGPGSYVSPTVYETAPAAPTWDFTSVHVHGALRLIDDPDDLRKIVQATVRAYEREVGTDWDMSESLEAFERLLPGVRGFEIKIESVDSMFKLSQEQLPETVTKVIDSFRRSDGGRRQELATMIERAASD
B2: enzyme (Oryza sativa, UniProt A0A7G1K8F5); chain MADESWRAPAIVQELAAAGVEEPPSRYLLREKDRSDVKLVAAELPEPLPVVDLSRLDGAEEATKLRVALQNWGFFLLTNHGVEASLMDSVMNLSREFFNQPIERKQKFSNLIDGKNFQIQGYGTDRVVTQDQILDWSDRLHLRVEPKEEQDLAFWPDHPESFRDVLNKYASGTKRIRDDIIQAMAKLLELDEDYFLDRLNEAPAFARFNYYPPCPRPDLVFGIRPHSDGTLLTILLVDKDVSGLQVQRDGKWSNVEATPHTLLINLGDTMEVMCNGIFRSPVHRVVTNAEKERISLAMLYSVNDEKDIEPAAGLLDENRPARYRKVSVEEFRAGIFGKFSRGERYIDSLRI
B3: enzyme Y105A (Streptomyces parvus, UniProt A0A7K3RVR3); chain MYVPEQYRPRDASWTLELIRSNPLALLVTNGPQHPWATHVPVLFAEEPDGPEGPDGLDATGDDLVGRRLLGHLNLMNPHWEALAGAGHALLVFQGPGSYVSPTVAETAPAAPTWDFTSVHVHGALRLIDDPDDLRKIVQATVRAYEREVGTDWDMSESLEYFERLLPGVRGFEIKIESVDSMFKLSQEQLPETVTKVIDSFRRSDGGRRQELATMIERAASD

CC(C)C[C@@H]1NC(=O)[C@H](CC(=O)O)NC(=O)CNC(=O)[C@H](CCCNC(=N)N)NC(=O)[C@H](Cc2ccccc2)NC(=O)[C@H](CCCCNC(=O)CCc2cn(CCCNC(=O)CN3CCN(CC(=O)O)CCN(CC(=O)O)CCN(CC(=O)O)CC3)nn2)N(C)C(=O)[C@H]2CCCN2C(=O)[C@H](Cc2ccccc2)NC(=O)[C@H](C)NC1=O  tissue-to-tissue ratio (female CB17 SCID mice, tumour and kidneys; intravenous, dose not given, 90 min, 177Lu-labelled; relative to: tumour over kidneys): 0.2 ± 0.1
B1 (enzyme Y161A)  Km (N[C@@H](CCCNO)C(=O)O; steady-state kinetics; pH 8, 25 °C, added: heme): 7.43 mM
B2 (enzyme)  Km (CS(=O)(=O)c1ccc(C(=O)C2C(=O)CCCC2=O)c([N+](=O)[O-])c1; steady-state kinetics; pH 7.4, 30 °C): 0.0148 mM
B3 (enzyme Y105A)  Km (N[C@@H](CCCNO)C(=O)O; steady-state kinetics; pH 8, 25 °C, added: heme): 3.22 mM
N=C(N)NCCC[C@@H]1NC(=O)[C@H](CCCCNC(=O)CCC(NC(=S)Nc2ccc(CC3CN(CC(=O)O)CCN(CC(=O)O)CCN(CC(=O)O)CCN3CC(=O)O)cc2)C(=O)NCCCC[C@@H]2NC(=O)[C@@H](Cc3ccc(O)cc3)NC(=O)[C@H](CC(=O)O)NC(=O)CNC(=O)[C@H](CCCNC(=N)N)NC2=O)NC(=O)[C@@H](Cc2ccc(O)cc2)NC(=O)[C@H](CC(=O)O)NC(=O)CNC1=O (stereo partly shown) [scandium-44 labelled]  tissue uptake (PET imaging ROI; female athymic nude mice, U-87 MG xenograft, muscle; intravenous, 4 h): 0.31 ± 0.15 %ID/g
C[C@@H](O)[C@@H]1NC(=O)[C@@H](NC(=O)CCOCCOCCOCCOCCNC(=O)c2ccc(NN)nc2)CSSC[C@@H](C(=O)O)NC(=O)[C@H](Cc2c[nH]cn2)NC(=O)[C@H](CO)NC(=O)[C@H](Cc2ccccc2)NC(=O)[C@@H]2CCCN2C(=O)[C@H](CO)NC(=O)[C@@H]2CCCN2C1=O [technetium-99m labelled]  tissue uptake (mouse HCT-116 xenograft, large intestine; intravenous, 37 MBq, postmortem after imaging): 1.74 ± 0.74 %ID/g
CCCC[C@H](NC(=O)[C@H](CCC(=O)O)NC(=O)[C@H](CCCCN)NC(=O)[C@H](CO)NC(=O)[C@H](Cc1ccccc1)NC(C)=O)C(=O)N[C@@H](CCCNC(=N)N)C(=O)N[C@@H](CC(N)=O)C(=O)N[C@@H](CCCNC(=N)N)C(=O)N[C@@H](Cc1ccc(O)cc1)C(=O)N[C@@H](Cc1c[nH]c2ccccc12)C(=O)N[C@@H](CCCC(=O)NCCN(CC(=O)NCCN(CC(=O)NCCN(CC(=O)NCCN(CC(N)=O)C(=O)Cn1cnc2c(=O)[nH]c(N)nc21)C(=O)Cn1ccc(N)nc1=O)C(=O)Cn1ccc(N)nc1=O)C(=O)Cn1cnc2c(=O)[nH]c(N)nc21)C(=O)N[C@@H](CS)C(=O)N[C@@H](C)C(=O)N[C@@H](CC(C)C)C(=O)N[C@@H](CC(=O)O)C(=O)N1CCC[C@H]1C(=O)N[C@@H](CC(N)=O)C(=O)N[C@@H](CC(C)C)C(=O)N[C@H](C(=O)N[C@@H](CC(N)=O)C(=O)N[C@@H](CCC(N)=O)C(=O)N[C@@H](CCC(N)=O)C(=O)N[C@@H](CCCCN)C(=O)N[C@@H](CCCNC(=N)N)C(=O)N[C@@H](C)C(=O)N[C@@H](CCCCNC(=O)CN(CCNC(=O)CN(CCNC(=O)CN(CCNC(=O)CN(CCNC(=O)[C@H](CCCNC(=N)N)NC(=O)CCCN(C)C(=O)c1ccccc1-c1c2ccc(=N)cc-2oc2cc(N)ccc12)C(=O)Cn1ccc(N)nc1=O)C(=O)Cn1cnc2c(=O)[nH]c(N)nc21)C(=O)Cn1cnc2c(=O)[nH]c(N)nc21)C(=O)Cn1ccc(N)nc1=O)C(=O)N[C@H](C(=O)N[C@@H](CCCNC(=N)N)C(=O)N[C@@H](CO)C(=O)N[C@H](C(=O)N[C@@H](Cc1ccc(O)cc1)C(=O)N[C@@H](CCC(=O)O)C(=O)N[C@@H](CCC(=O)O)C(N)=O)[C@@H](C)CC)[C@@H](C)CC)[C@@H](C)O  half-life (trypsin; degradation of compound, LC-MS; 40 µM, pH 7.5, 37 °C, 10% DMF, added: trypsin 12.5 ng/mL): 6.15 ± 1.02 h
CN[C@H](CC(C)C)C(=O)N[C@H]1C(=O)N[C@@H](CC(N)=O)C(=O)N[C@H]2C(=O)N[C@H]3C(=O)N[C@H](C(=O)N[C@H](C(=O)O)c4cc(O)cc(O)c4-c4cc3ccc4O)[C@H](O)c3ccc(c(Cl)c3)Oc3cc2cc(c3O[C@@H]2O[C@H](CO)[C@@H](O)[C@H](O)[C@H]2O[C@H]2C[C@](C)(NCc3ccc(OCc4cn(CC(=O)N[C@H](C(=O)N[C@@H](CCN)C(=O)N[C@H]5CCNC(=O)[C@H]([C@@H](C)O)NC(=O)[C@H](CCN)NC(=O)[C@H](CCN)NC(=O)[C@H](CC(C)C)NC(=O)[C@@H](CC(C)C)NC(=O)[C@H](CCN)NC5=O)[C@@H](C)O)nn4)c(OC)c3)[C@H](O)[C@H](C)O2)Oc2ccc(cc2Cl)[C@H]1O  hemolysis (sheep erythrocytes; 512 µg/mL, 37 °C; relative to: Triton X-100): < 5%
CC(C)C[C@@H]1NC(=O)[C@H](CC(=O)O)NC(=O)CNC(=O)[C@H](CCCNC(=N)N)NC(=O)[C@H](Cc2ccccc2)NC(=O)[C@H](CCCCNC(=O)CCc2cn(CCCNC(=O)CCC(C(=O)O)N3CCN(CC(=O)O)CCN(CC(=O)O)CCN(CC(=O)O)CC3)nn2)N(C)C(=O)[C@H]2CCCN2C(=O)[C@H](Cc2ccccc2)NC(=O)[C@H](C)NC1=O (stereo partly shown)  tissue-to-tissue ratio (female CB17 SCID mice, tumour and eye; intravenous, dose not given, 90 min, 177Lu-labelled; relative to: tumour over eye): 5 ± 1.4
CC[C@H](C)[C@H](NC(=O)[C@H](CO)NC(=O)[C@H](Cc1ccc(O)cc1)NC(=O)[C@H](Cc1ccc(O)cc1)NC(=O)[C@H](CC(N)=O)NC(=O)CNC(=O)[C@H](CO)NC(=O)[C@H](Cc1ccc(O)cc1)NC(=O)[C@H](CO)NC(=O)[C@H](CO)NC(=O)[C@H](CC(N)=O)NC(=O)COCCOCCNC(=O)CN1CCN(CC(=O)O)CCN(CC(=O)O)CCN(CC(=O)O)CC1)C(=O)N[C@@H](CC(C)C)C(N)=O [copper-64 labelled]  tumour uptake (dynamic PET; mouse, tamoxifen-induced PDAC, tumor; intravenous, 0.1 µg/mouse, 6.5 min): 12.3 %ID/mL

Excerpt of the above:
C[C@@H](O)[C@@H]1NC(=O)[C@@H](NC(=O)CCOCCOCCOCCOCCNC(=O)c2ccc(NN)nc2)CSSC[C@@H](C(=O)O)NC(=O)[C@H](Cc2c[nH]cn2)NC(=O)[C@H](CO)NC(=O)[C@H](Cc2ccccc2)NC(=O)[C@@H]2CCCN2C(=O)[C@H](CO)NC(=O)[C@@H]2CCCN2C1=O [technetium-99m labelled]  tissue uptake (mouse HCT-116 xenograft, large intestine; intravenous, 37 MBq, postmortem after imaging): 1.74 ± 0.74 %ID/g
